# Assay results gathered from unrelated publications.
# Protocols differ between the studies behind these lines. ± marks the error that the study gave.
# Polyprotein P1234 nsP2 protease domain: Polyprotein P1234, nsP2 protease domain (Chikungunya virus, UniProt Q5XXP4)
# Chain of UniProt Q5XXP4 (whole entry, looked up): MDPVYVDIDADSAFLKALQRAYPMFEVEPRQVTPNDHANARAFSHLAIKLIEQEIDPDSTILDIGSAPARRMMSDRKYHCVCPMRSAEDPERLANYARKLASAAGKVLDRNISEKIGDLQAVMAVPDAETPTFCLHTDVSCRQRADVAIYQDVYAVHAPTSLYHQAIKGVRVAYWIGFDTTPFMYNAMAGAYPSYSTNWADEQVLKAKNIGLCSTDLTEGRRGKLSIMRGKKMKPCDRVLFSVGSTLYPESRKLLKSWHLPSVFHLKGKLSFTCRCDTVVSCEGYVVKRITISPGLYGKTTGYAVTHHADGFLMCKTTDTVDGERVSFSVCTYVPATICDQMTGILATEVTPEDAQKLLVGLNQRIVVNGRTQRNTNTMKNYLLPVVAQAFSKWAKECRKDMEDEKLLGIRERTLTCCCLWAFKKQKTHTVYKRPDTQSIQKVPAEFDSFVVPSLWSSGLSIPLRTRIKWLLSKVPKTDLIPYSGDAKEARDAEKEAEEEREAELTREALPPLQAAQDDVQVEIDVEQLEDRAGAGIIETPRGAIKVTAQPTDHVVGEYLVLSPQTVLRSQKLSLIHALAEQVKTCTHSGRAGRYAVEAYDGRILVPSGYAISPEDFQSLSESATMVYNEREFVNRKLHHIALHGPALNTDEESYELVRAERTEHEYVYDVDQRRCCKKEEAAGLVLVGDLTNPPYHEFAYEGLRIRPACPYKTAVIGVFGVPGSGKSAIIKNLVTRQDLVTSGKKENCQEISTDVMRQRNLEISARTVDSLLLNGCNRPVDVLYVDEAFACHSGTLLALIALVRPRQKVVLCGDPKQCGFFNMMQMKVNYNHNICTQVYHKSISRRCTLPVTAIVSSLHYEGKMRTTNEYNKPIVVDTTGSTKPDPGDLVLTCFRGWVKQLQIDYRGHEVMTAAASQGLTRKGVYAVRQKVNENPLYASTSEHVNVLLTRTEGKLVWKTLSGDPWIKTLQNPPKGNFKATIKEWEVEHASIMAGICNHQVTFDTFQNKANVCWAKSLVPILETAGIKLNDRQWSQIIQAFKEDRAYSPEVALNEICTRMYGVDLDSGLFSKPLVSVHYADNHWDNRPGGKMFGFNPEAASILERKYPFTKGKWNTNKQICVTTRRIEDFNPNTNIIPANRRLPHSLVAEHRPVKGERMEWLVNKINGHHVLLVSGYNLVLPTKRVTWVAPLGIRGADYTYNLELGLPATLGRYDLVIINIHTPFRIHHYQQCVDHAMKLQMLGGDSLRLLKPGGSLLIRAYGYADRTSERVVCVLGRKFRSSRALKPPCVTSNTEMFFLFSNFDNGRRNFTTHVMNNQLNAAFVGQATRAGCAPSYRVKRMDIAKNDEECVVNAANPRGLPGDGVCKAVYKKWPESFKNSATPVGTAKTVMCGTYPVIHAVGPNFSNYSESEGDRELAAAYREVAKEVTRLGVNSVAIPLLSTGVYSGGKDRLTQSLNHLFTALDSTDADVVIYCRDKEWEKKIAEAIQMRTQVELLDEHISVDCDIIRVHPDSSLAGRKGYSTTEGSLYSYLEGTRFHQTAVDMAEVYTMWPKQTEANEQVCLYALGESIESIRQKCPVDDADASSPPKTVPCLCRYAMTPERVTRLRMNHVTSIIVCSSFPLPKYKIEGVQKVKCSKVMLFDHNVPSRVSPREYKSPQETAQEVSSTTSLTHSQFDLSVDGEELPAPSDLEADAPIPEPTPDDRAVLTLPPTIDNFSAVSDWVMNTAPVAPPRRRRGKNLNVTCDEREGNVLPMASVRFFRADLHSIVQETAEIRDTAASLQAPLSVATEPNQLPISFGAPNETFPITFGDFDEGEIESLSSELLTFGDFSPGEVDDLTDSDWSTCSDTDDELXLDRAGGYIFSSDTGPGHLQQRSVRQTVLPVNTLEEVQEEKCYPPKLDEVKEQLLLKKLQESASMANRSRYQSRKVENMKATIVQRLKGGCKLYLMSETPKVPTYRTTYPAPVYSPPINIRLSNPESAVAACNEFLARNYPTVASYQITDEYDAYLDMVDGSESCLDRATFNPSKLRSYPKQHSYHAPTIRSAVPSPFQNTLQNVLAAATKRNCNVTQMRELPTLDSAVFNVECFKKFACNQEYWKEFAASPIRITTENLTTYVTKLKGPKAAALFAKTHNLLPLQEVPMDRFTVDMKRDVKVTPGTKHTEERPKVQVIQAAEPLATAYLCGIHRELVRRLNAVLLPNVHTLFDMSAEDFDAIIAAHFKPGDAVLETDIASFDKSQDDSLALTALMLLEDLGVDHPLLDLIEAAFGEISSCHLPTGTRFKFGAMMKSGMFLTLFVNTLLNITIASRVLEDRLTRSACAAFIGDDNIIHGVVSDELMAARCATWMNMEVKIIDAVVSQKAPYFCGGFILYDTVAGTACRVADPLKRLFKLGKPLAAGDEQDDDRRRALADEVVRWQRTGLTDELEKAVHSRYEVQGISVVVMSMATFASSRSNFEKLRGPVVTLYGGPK
# nanI: Sialidase (nanI, Clostridium perfringens, UniProt A0A0H2YQR1)
# HLA class I histocompatibility antigen, B alpha chain: HLA class I histocompatibility antigen, B alpha chain (Homo sapiens, UniProt P01889)
# Spike glycoprotein: Spike glycoprotein (Severe acute respiratory syndrome coronavirus 2, UniProt P0DTC2)
# Chain of UniProt Q07001 (whole entry, looked up): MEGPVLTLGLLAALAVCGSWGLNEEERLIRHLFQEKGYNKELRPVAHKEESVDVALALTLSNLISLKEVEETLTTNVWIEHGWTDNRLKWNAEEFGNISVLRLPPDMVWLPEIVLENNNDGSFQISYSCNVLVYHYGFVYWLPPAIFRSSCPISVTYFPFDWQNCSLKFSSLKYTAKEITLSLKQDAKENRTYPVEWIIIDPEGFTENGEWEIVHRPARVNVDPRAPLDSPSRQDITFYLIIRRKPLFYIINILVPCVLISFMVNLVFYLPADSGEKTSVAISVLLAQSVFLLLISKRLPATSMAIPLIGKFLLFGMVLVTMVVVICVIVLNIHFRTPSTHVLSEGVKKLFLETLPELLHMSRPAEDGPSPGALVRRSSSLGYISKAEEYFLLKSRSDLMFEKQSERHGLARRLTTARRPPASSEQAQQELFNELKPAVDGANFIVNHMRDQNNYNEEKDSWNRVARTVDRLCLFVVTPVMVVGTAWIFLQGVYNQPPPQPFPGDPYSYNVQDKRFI
# Chain of UniProt P02708 (whole entry, looked up): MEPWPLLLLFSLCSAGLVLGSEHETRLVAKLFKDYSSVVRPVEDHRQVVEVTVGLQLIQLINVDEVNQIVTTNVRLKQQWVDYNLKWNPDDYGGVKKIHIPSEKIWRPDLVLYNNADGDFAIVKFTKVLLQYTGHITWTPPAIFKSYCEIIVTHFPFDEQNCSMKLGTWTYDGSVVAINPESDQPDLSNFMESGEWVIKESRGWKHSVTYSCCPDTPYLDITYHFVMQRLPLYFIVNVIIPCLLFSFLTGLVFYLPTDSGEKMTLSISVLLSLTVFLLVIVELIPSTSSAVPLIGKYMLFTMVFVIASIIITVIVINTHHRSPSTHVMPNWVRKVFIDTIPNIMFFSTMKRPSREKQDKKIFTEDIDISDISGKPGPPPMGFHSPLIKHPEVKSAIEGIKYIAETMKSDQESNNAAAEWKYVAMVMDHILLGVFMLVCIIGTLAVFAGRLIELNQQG
# Chain of UniProt P07510 (whole entry, looked up): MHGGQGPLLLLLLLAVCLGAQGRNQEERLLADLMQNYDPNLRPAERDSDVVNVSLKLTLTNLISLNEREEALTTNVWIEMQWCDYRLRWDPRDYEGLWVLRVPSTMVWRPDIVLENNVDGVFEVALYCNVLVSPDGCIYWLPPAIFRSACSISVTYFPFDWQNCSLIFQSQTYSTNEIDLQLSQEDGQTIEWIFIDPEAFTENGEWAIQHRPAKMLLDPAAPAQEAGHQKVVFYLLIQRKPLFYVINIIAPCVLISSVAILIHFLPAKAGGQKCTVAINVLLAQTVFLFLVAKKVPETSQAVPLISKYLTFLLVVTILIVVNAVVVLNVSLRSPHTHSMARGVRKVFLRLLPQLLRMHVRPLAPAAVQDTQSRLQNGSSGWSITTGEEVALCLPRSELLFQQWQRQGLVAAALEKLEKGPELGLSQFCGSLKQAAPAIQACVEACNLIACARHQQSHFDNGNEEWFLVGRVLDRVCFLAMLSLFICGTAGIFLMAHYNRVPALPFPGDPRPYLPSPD
# Chain of UniProt P20813 (whole entry, looked up): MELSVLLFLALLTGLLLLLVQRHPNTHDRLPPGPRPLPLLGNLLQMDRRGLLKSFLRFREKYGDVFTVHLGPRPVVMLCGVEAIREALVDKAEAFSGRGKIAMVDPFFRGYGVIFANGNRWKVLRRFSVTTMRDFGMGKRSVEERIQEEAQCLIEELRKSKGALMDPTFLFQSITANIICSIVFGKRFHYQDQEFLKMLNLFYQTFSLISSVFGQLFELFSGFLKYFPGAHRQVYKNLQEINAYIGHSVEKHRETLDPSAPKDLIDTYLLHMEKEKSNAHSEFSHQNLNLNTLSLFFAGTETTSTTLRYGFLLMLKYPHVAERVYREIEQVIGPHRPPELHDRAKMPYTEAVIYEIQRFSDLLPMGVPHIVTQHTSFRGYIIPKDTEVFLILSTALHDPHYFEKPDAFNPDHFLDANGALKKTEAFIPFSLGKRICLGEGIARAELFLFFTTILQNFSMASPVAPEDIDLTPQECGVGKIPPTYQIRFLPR
Structure (SMILES),tested on,assay,system,setting,measurement,value
CC(=O)N[C@H]1[C@H]([C@H](O)[C@H](O)CO)O[C@](OP(=O)(O)OC[C@H]2O[C@@H](n3ccc(N)nc3=O)[C@H](O)[C@@H]2O)(C(=O)O)C[C@@H]1O,"Spike glycoprotein, with ACE2 (Severe acute respiratory syndrome coronavirus 2, UniProt P0DTC2)","binding to human ACE2, inhibitor",SARS-CoV-2,,IC50,0.0032 µM
C=CS(=O)(=O)CCC(=O)Nc1cc2oc(=O)n(C)c2cc1F,Polyprotein P1234 nsP2 protease domain,"protease activity, inhibitor, FRET",,"90 min, 30 min preincubation",IC50,11 ± 2 µM
O=c1c(-c2ccccc2)c(O)c2cc(-c3cccc(-c4ccccc4)c3)cnc2n1O,"Resolvase OPG149 (OPG149, Vaccinia virus, UniProt Q80HV3)",,,,IC50,0.478 µM
CC(C)[C@H](N)C(=O)N[C@H](C(=O)N[C@@H](CC(=O)O)C(=O)N[C@H](C(=O)N[C@@H](CC(N)=O)C(=O)N[C@@H](CCCCN)C(=O)N[C@@H](Cc1ccccc1)C(=O)N[C@@H](CC(=O)O)C(=O)N[C@@H](CC(N)=O)C(=O)N[C@@H](Cc1ccc(O)cc1)C(=O)O)[C@@H](C)O)[C@@H](C)O,"HLA class I histocompatibility antigen, A alpha chain, allele A*01:01 (Homo sapiens, UniProt P04439)",biochemical,,,IC50,0.00097 µM
O=C(N1CCC2(CC1)C[C@@H](CN1CCCCS1(=O)=O)CCO2)C1(c2cc(F)cc(F)c2)CCCC1,"Polyprotein P1234, nsP2 (Chikungunya virus, UniProt Q8JUX6)","nsP2 ATPase activity, inhibitor, ADP-Glo",,,IC50,46 µM
CCC(CC)O[C@@H]1C=C(C(=O)O)C[C@H](N)[C@H]1NC(C)=O,"neuraminidase (Influenza A virus, UniProt A9YLD5)",,,,IC50,0.00065 µM
CC(C)CCN[C@H]1[C@H]([C@H](O)[C@H](O)CO)OC(C(=O)O)=C[C@@H]1O,nanI,"enzyme activity, inhibitor",,,IC50,> 500 µM
CC(C)C[C@H](NC(=O)[C@H](Cc1ccccc1)NC(=O)[C@H](CO)NC(=O)[C@@H]1CCCN1C(=O)[C@H](CC(=O)O)NC(=O)[C@@H](NC(=O)[C@@H](NC(=O)[C@@H](N)Cc1c[nH]cn1)[C@@H](C)O)[C@@H](C)O)C(=O)NCC(=O)N[C@@H](CCCNC(=N)N)C(=O)O,"HLA class I histocompatibility antigen, A alpha chain (Homo sapiens, UniProt P04439)","binding, competitor",,,IC50,10.3 µM
Cc1ccccc1NC(=O)C(C)n1c(SCc2ccc(F)cc2)nc2cccnc21 (stereo not drawn),"Replicase polyprotein 1ab, papain-like protease (rep, Severe acute respiratory syndrome-related coronavirus, UniProt P0C6X7)",enzyme activity,,,IC50,> 20 µM
C=CS(=O)(=O)c1nc(C)cs1,Polyprotein P1234 nsP2 protease domain,"protease activity, inhibitor, FRET",,"90 min, 30 min preincubation",IC50,22 ± 4 µM
CCC(CC)O[C@@H]1C=C(C(=O)O)C[C@H](N)[C@H]1NC(C)=O,"Neuraminidase (Influenza A virus, UniProt L0MUX9)","enzyme activity, inhibitor","swine influenza A virus, N2 subtypes average",,IC50,0.00017 µM
CC[C@H](C)[C@H](NC(=O)[C@@H](NC(=O)[C@H](Cc1ccccc1)NC(=O)[C@H](CCCNC(=N)N)NC(=O)[C@H](CC(N)=O)NC(=O)[C@@H]1CCCN1C(=O)[C@H](CC(N)=O)NC(=O)[C@H](CCCCN)NC(=O)[C@H](C)N)C(C)C)C(=O)O,"HLA class I histocompatibility antigen, B alpha chain",biochemical,,,IC50,0.291 µM
CCc1c(C(=O)C(N)=O)c2c(OCC(=O)O)cccc2n1Cc1ccccc1,Daboia russelii venom PLA2,"enzyme activity, inhibitor",,"venom from MP, with: NOB substrate",IC50,1.68 µM
COC(=O)[C@]1(C)CC[C@]2(C(=O)O[C@@H]3O[C@H](CO)[C@@H](O)[C@H](O)[C@H]3O)CC[C@]3(C)C(=CC[C@@H]4[C@@]5(C)C[C@H](O)[C@H](O[C@@H]6OC[C@@H](O[C@@H]7O[C@H](CO)[C@@H](O)[C@H](O)[C@H]7O)[C@H](O)[C@H]6O)[C@@](C)(CO)C5CC[C@]43C)[C@H]2C1 (stereo partly drawn),Spike glycoprotein,"binding, biolayer interferometry",,,Kd,31.4 µM
CC1=NOC(=O)/C1=C\c1ccc(-c2ccc(Cl)cc2Cl)o1,"Replicase polyprotein 1ab, nsp13 helicase (rep, Severe acute respiratory syndrome coronavirus 2, UniProt P0DTD1)","helicase ATPase activity, inhibitor, Kinase-Glo luminescence",,,IC50,> 100 µM
CCC(C(=O)Nc1cc(NC2CNC2)ccc1C)n1cccc2nc(SCc3ccc(F)cc3)nc1-2 (stereo not drawn),"Replicase polyprotein 1ab, papain-like protease (rep, Severe acute respiratory syndrome-related coronavirus, UniProt P0C6X7)",enzyme activity,,,IC50,0.129 ± 0.032 µM
CC[C@H](C)[C@H](NC(=O)[C@H](Cc1c[nH]c2ccccc12)NC(=O)[C@@H](N)C(C)C)C(=O)N[C@@H](CC(N)=O)C(=O)N[C@@H](CC(N)=O)C(=O)N[C@@H](CO)C(=O)N[C@@H](Cc1c[nH]c2ccccc12)C(=O)N[C@@H](CCCCN)C(=O)N[C@@H](Cc1ccccc1)C(=O)O,"HLA class I histocompatibility antigen, A alpha chain, allele A*23:01 (Homo sapiens, UniProt P04439)",biochemical,,,IC50,0.0053 µM
CC[C@H](C)[C@H](NC(=O)[C@H](CC(C)C)NC(=O)[C@H](Cc1c[nH]c2ccccc12)NC(=O)[C@H](CCC(N)=O)NC(=O)[C@@H](NC(=O)[C@H](Cc1ccccc1)NC(=O)[C@H](C)NC(=O)[C@H](CCCCNC(=O)COCCOCCNC(=O)COCCOCCNC(=O)CC[C@H](NC(=O)CCCCCCCCCCCCCCCCCCC(=O)O)C(=O)O)NC(=O)[C@H](CCC(N)=O)NC(=O)[C@H](C)NC(=O)[C@@H](NC(=O)[C@H](CCCCN)NC(=O)[C@H](CC(=O)O)NC(=O)[C@H](CC(C)C)NC(=O)C(C)(C)NC(=O)[C@@H](NC(=O)[C@H](CO)NC(=O)[C@H](Cc1ccc(O)cc1)NC(=O)[C@H](CC(=O)O)NC(=O)[C@H](CO)NC(=O)[C@@H](NC(=O)[C@H](Cc1ccccc1)NC(=O)[C@@H](NC(=O)CNC(=O)[C@H](CCC(=O)O)NC(=O)C(C)(C)NC(=O)[C@@H](N)Cc1ccc(O)cc1)[C@@H](C)O)[C@@H](C)O)[C@@H](C)CC)[C@@H](C)CC)C(C)C)C(=O)N[C@@H](C)C(=O)NCC(=O)NCC(=O)N1CCC[C@H]1C(=O)N[C@@H](CO)C(=O)N[C@@H](CO)C(=O)NCC(=O)N[C@@H](C)C(=O)N1CCC[C@H]1C(=O)N1CCC[C@H]1C(=O)N1CCC[C@H]1C(=O)N[C@@H](CO)C(N)=O,,,healthy human,"5.0 mg, single ascending dose",severe hypoglycaemia,0%
Nc1ncnc2c([C@@H]3N[C@H](CO)[C@@H](O)[C@H]3O)c[nH]c12,Marburg virus,viral replication,"HeLa, Musoke",200 µM,inhibition,99%
O=C(O)C1=C[C@H](O)[C@@H](n2cc(-c3ccc(-c4ccccc4)cc3)nn2)[C@H]([C@H](O)[C@H](O)CO)O1,nanI,"enzyme activity, inhibitor",,,IC50,> 500 µM
CCC(C(=O)Nc1cnn(C)c1)n1cccc2nc(SCc3ccc(F)cc3)nc1-2 (stereo not drawn),"Replicase polyprotein 1ab, papain-like protease (rep, Severe acute respiratory syndrome-related coronavirus, UniProt P0C6X7)",enzyme activity,,,IC50,> 20 µM
C#Cc1cccc(N(Cc2ccco2)C(=O)CCl)c1,Polyprotein P1234 nsP2 protease domain,"protease activity, inhibitor, FRET",,"90 min, 30 min preincubation",IC50,74 ± 9 µM
CCC(C(=O)Nc1cc(NC2CCOCC2)ccc1C)n1cc(Br)cc2nc(SCc3ccc(F)cc3)nc1-2 (stereo not drawn),"Replicase polyprotein 1ab, papain-like protease (rep, Middle East respiratory syndrome-related coronavirus, UniProt K9N7C7)","enzyme activity, inhibitor",,,IC50,> 100 µM
COc1cc(Nc2ncc(F)c(Nc3ccc4c(n3)NC(=O)C(C)(C)O4)n2)cc(OC)c1OC,"CHRNA1/CHRNG/CHRND (Homo sapiens, UniProt P02708+P07510+Q07001)",,,,IC50,> 10 µM
CCC(C(=O)Nc1ccccc1C)n1cc(F)cc2nc(SCc3ccc(F)cc3)nc1-2 (stereo not drawn),"Replicase polyprotein 1ab, papain-like protease (rep, Middle East respiratory syndrome-related coronavirus, UniProt K9N7C7)","enzyme activity, inhibitor",,,IC50,> 100 µM
CC[C@H](C)[C@H](NC(=O)[C@H](CCC(=O)O)NC(=O)[C@@H](N)CCC(=O)O)C(=O)N1CCC[C@H]1C(=O)N[C@@H](CC(=O)O)C(=O)N[C@@H](Cc1ccccc1)C(=O)N[C@@H](C)C(=O)N[C@@H](Cc1ccccc1)C(=O)N[C@@H](Cc1ccc(O)cc1)C(=O)O,"HLA class I histocompatibility antigen, B alpha chain, allele B*44:03 (Homo sapiens, UniProt P01889)",biochemical,,,IC50,0.00025 µM
CO[C@H]1C[C@@H]2CC[C@@H](C)[C@@](O)(O2)C(=O)C(=O)N2CCCC[C@H]2C(=O)O[C@H]([C@H](C)C[C@@H]2CC[C@@H](O)[C@H](OC)C2)CC(=O)[C@H](C)/C=C(\C)[C@@H](O)[C@@H](OC)C(=O)[C@H](C)C[C@H](C)/C=C/C=C/C=C/1C,Spike glycoprotein,"binding, biolayer interferometry",,,Kd,89.6 µM
CSc1ccc(CN(C)C(=O)CCl)cc1,Polyprotein P1234 nsP2 protease domain,"protease activity, inhibitor, FRET",,"90 min, 30 min preincubation",IC50,49 ± 7 µM
CCC(C(=O)Nc1cc(NC2CCOCC2)ccc1C)n1cc(F)cc2nc(SCc3ccc(F)cc3)nc1-2 (stereo not drawn),"Replicase polyprotein 1ab, papain-like protease (rep, Middle East respiratory syndrome-related coronavirus, UniProt K9N7C7)","enzyme activity, inhibitor",,,IC50,> 100 µM
Cn1cnc(Cn2c(=O)[nH]/c(=N\c3cc4cn(C)nc4cc3Cl)n(Cc3cc(F)c(F)cc3F)c2=O)n1,"Cytochrome P450 2B6 (CYP2B6, Homo sapiens, UniProt P20813)",inhibitor,human liver microsomes,"0 min preincubation, with: efavirenz 5 µM",IC50,> 100 µM
CC[C@H](C)[C@H](NC(=O)[C@@H](NC(=O)[C@H](C)NC(=O)[C@H](Cc1ccc(O)cc1)NC(=O)[C@H](Cc1c[nH]cn1)NC(=O)[C@H](CCCNC(=N)N)NC(=O)[C@@H]1CCCN1C(=O)[C@@H](N)Cc1c[nH]cn1)[C@@H](C)O)C(=O)N[C@@H](CCSC)C(=O)O,"HLA class I histocompatibility antigen, B alpha chain",biochemical,,,IC50,0.012 µM
Cc1ccc(N)cc1C(=O)N[C@H](C)c1cccc2ccccc12,"Replicase polyprotein 1ab, papain-like protease (rep, Middle East respiratory syndrome-related coronavirus, UniProt K9N7C7)","enzyme activity, inhibitor",,,IC50,> 100 µM
Cn1cnc(Cn2c(=O)[nH]/c(=N\c3cc4cn(C)nc4cc3Cl)n(Cc3cc(F)c(F)cc3F)c2=O)n1,,,"human, moderate severity, any TEAE","oral, 375 mg",patients with TEAE,6.3%

# Excerpt of the above:
Structure (SMILES),tested on,assay,system,setting,measurement,value
CC[C@H](C)[C@H](NC(=O)[C@@H](NC(=O)[C@H](C)NC(=O)[C@H](Cc1ccc(O)cc1)NC(=O)[C@H](Cc1c[nH]cn1)NC(=O)[C@H](CCCNC(=N)N)NC(=O)[C@@H]1CCCN1C(=O)[C@@H](N)Cc1c[nH]cn1)[C@@H](C)O)C(=O)N[C@@H](CCSC)C(=O)O,"HLA class I histocompatibility antigen, B alpha chain",biochemical,,,IC50,0.012 µM
CCC(C(=O)Nc1cnn(C)c1)n1cccc2nc(SCc3ccc(F)cc3)nc1-2 (stereo not drawn),"Replicase polyprotein 1ab, papain-like protease (rep, Severe acute respiratory syndrome-related coronavirus, UniProt P0C6X7)",enzyme activity,,,IC50,> 20 µM
